# Results collected from several papers.
# Each numbered part is a random draw from the data of one study; scales do not carry over between parts.

# Series 1
# Target: Replicase polyprotein 1ab, polymerase (rep, Severe acute respiratory syndrome coronavirus 2, UniProt P0DTD1)
# Observed: enzyme activity
# Mode: inhibitor
# Tested at: 20 µM
Structure (SMILES),inhibition [%]
O=C(c1cccc(Cl)c1F)N1CCN(Cc2cccc(Nc3nccs3)n2)CC1,-1.43
Cc1ccc(-c2nc3ccc(C)cn3c2CC(=O)N(C)C)cc1,-5.03
NC(=O)[C@@H](CC1CC1)[C@@H](CCC(F)(F)F)C(=O)N[C@H]1N=C(c2ccccc2)c2cccc(F)c2NC1=O,0.68
Nc1nc(Nc2ccc3c(c2)CC[C@@H](N2CCCC2)CC3)nn1-c1cc2c(nn1)-c1ccccc1CCC2,2.24
Nc1ncnc2c1c(-c1ccc(Oc3ccccc3)cc1)nn2C1CCCC1,-20.7
COc1ccc(CCC(=O)c2c(O)cc(O[C@@H]3O[C@H](CO)[C@@H](O)[C@H](O)[C@H]3O[C@@H]3O[C@@H](C)[C@H](O)[C@@H](O)[C@H]3O)cc2O)cc1O,-9.64
N=C(N)SCCc1c[nH]cn1,1
C[C@@H]1CN(Cc2ccc(F)cc2)CCN1C(=O)COc1ccc(Cl)cc1NC(N)=O,6.05
Cc1ccc(-c2csc3ncnc(SCCC(=O)O)c23)cc1,3.68
O=C(/C=C/c1ccc2c(c1)OCO2)N1CCCCC1,-2.76
CN1CCN(c2nc3ccccc3nc2Cl)CC1,-1.32
COc1ccc(-c2noc(CC(=O)O)c2-c2ccc(OC)cc2)cc1,5.01
COc1ccccc1OCCNCC(O)COc1cccc2[nH]c3ccccc3c12 (centres unmarked),-2.75
Cc1cc(Nc2ccc(NC(=O)c3ccc(Nc4ccnc5ccccc45)cc3)cc2)nc(N)n1,27.8
N#Cc1c(N)nc(SCc2ncc[nH]2)c(C#N)c1-c1ccc(O)cc1,-2.41
Cc1c(F)cccc1NC(=O)Nc1ccc(Cl)c(S(=O)(=O)[C@H]2CCCNC2)c1O,-0.32
NC(=O)c1ncn([C@@H]2O[C@H](CO)[C@@H](O)[C@H]2O)n1,-2.47
CCN(CC)CCCC(C)Nc1nc(C)cc(Nc2ccc3nc(C)cc(N)c3c2)n1 (centres unmarked),-6.96
COc1cc2ncnc(Nc3ccc(F)c(Cl)c3)c2cc1NC(=O)/C=C/CN1CCCCC1,-1.41
NC(=O)c1ccc([N+](=O)[O-])cc1Cl,1.15
COc1cc2ncn(-c3cc(OCc4ccccc4C(F)(F)F)c(C(N)=O)s3)c2cc1OC,-1.62
CCOc1cc([C@@H](CS(C)(=O)=O)N2C(=O)c3cccc(NC(C)=O)c3C2=O)ccc1OC,0.36
NCC1CC(=O)N(Cc2ccccc2)C1 (centres unmarked),0.31
CC(C)(C)OC(=O)c1ncn2c1[C@@H]1CCCN1C(=O)c1c(Br)cccc1-2,-4.42
CCCn1c(=O)[nH]c(=O)c2[nH]cnc21,37.9

# Series 2
# Organism: SARS-CoV-2
# Observed: cytopathic effect
# Cells: Vero E6
# Tested at: 10 µM
SMILES,inhibition
NC[C@@H]1O[C@H](C23CC4CC(CC(C4)C2)C3)Cc2c1ccc(O)c2O,0.4%
Oc1c(I)cc(I)c(O)c1I,-1.5%
S=C=Nc1cccc(NC(=S)NCCCCNC(=S)Nc2cccc(N=C=S)c2)c1,-20.3%
C[S+]([O-])CCCCN=C=S (centres unmarked),-2.7%
CC(C)c1cc(CNc2nc(Nc3cc(C4CC4)[nH]n3)cc(N3CCN(C)CC3)n2)on1,-18.8%

# Series 3
# Target: PABPC1L2, full length, GST fusion (mouse, UniProt A0ABA7IW68)
# Method: RNAcompete
# Molecule type: RNA
# Matrix: in vitro
# Tested at: 20 nM
# Setting: 7-mer, probes averaged, single round
# Reference: mean of 7-mers
# Direction: higher = stronger binding
Oligonucleotide,7-mer Z-score
ACAUACA,0.195
AUUAAAC,0.691
UGCUGCU,-0.266
CCAGGAA,0.211
UCGUCCC,-0.498
GCCUCAG,-0.351
UUGCUCU,-0.463
CAAUGGA,0.0787

# Series 4
# Cell line: HEK-293T
# Observed: pseudovirus infection
# Method: FDA-approved drug library screen
# Organism: VSV pseudotyped with SARS-CoV-2 spike
# Tested at: 10 µM
# Time: 16 h
# Reference: vehicle-treated
SMILES,GFP-positive cells [%]
Nc1ccc(/N=N/c2ccccc2)c(N)n1,99
Cc1ccc(C(=O)c2cc(O)c(O)c([N+](=O)[O-])c2)cc1,80.9
CC1(C)S[C@@H]2[C@H](NC(=O)C(C(=O)O)c3ccccc3)C(=O)N2[C@H]1C(=O)O (some centres unmarked),67.4
CCCCN1CCCCC1C(=O)Nc1c(C)cccc1C (centres unmarked),98.7

# Series 5
# Target: Phosphate system positive regulatory protein PHO4, full length, GST-tagged (PHO4, Saccharomyces cerevisiae, UniProt P07270, residues 1-312)
# Sequence of UniProt P07270 (whole entry, looked up): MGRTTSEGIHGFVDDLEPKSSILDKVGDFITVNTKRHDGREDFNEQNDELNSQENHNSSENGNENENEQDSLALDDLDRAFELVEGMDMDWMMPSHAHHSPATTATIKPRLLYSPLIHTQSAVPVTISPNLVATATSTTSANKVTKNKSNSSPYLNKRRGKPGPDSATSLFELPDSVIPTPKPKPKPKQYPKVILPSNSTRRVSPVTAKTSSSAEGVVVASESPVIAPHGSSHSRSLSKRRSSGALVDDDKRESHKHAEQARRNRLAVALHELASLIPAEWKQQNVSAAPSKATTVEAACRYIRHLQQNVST
# Method: competition protein-binding microarray
# Molecule type: double-stranded DNA, one strand shown
# Matrix: in vitro
# Tested at: 2 µM
# Setting: whole 60-bp probe, lowest competitor level
# Added: Cbf1 competitor, 0.05 µM
# Direction: higher = stronger binding
# Shared flanks, not repeated: … GTCTTGATTCGCTTGACGCTGCTG
Oligonucleotide,fluorescence intensity [a.u.]
ACCTCCTCTTCAGTACTAAATCTACCAATACCAAAT,3930
GTCTTGTCTCATTGCTTTGTGGGTGTCCCCACTTCA,4330
AGAGGGCGGCACCATCACGATCCCTCTGCCTTTGAA,4790
CTTTCCCGATCTTGACGAGTGGGTGTAGCACATTTG,4190
GATAATTCTGTCCTTCACGTGGTCGAAACCGGTTAT,16300
CGTCCTAGTGATTGGTACGTGGGTGCCATGAGGAAG,8890
CACACTGCGGGGTTACCCGTGTAACGTAGAATAAAA,5770
TACTAATAGGCGTCCCACGTTTGAATTTCTTTTTTT,10300
